Experimental data collected from several papers.
Every numbered part comes from another study and shows a few of its results, in no order.

Study 1 — technique: RNA Bind-n-Seq; molecule type: RNA; matrix: in vitro; concentration: 365 nM; reference: no-protein control; reading: higher = stronger binding
Target: RNA binding protein fox-1 homolog 2, RRM domain, GST-SBP tag (RBFOX2, Homo sapiens, UniProt O43251-10, residues 100-194)
Notes: natural RNA segment, single round, ends assumed
Constant ends, left off below: GGGAGUUCUACAGUCCGACGAUC … UGGAAUUCUCGGGUGCCAA
Residues (chain): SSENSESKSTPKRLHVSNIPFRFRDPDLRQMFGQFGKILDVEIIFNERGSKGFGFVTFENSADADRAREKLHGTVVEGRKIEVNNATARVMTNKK
For `UCACUAGUGUCAGGCCCCCAGUGGGACCACAUGCCACUGCCUGCACCUUUCGGCAGAGGAACCCCCACCAGACAUCACCCUUUGCCUUAGCAGGGGUGACUUUGUCUCUC`, “RBNS enrichment (R)” read 0.256.
Under “RBNS enrichment (R)”, `AUAUAGCAUUUGGUUUUUACCUCCUAGCAUAUGCUACUUGGUAUGUGAGGGUUUCAGUACAAAUGCUGCUGUCUAUUUCUGUGCACUUAACAAUGGAACCCAAACAGAAG` is recorded as 0.33.
For `UCCCUCAUUCCAGCCUUUCUAUAUAAAUAGCUCUUUCUUGCUGUUUUAAUGUGGUGCACACUAUAGCCUCACAAACCUGUUAUUCCAGUGUAAUCUGCAGUGUCGUAACU`, “RBNS enrichment (R)” read 0.838.
Under “RBNS enrichment (R)”, `AGGAGAUCAGCUCCAACUAUGGUGGGGUGAGUUUUUCCUGACUUGGAGGCUUGCCAGAGAAGGUGGAGAAUGAAGUAGAACUCAGCUUCCCUCUCAGAGCCUGUGCCCGA` is recorded as 0.315.
Under “RBNS enrichment (R)”, `ACACCCCUGAGCAGAGUUAGGGAGGAAUUCUACUUCCCAUAAAAGGACCUCUCCUGAGAGGCAAAACCUGUUGCCUCCACCACGGCUUCCCUCUUGGCUCAUUCCAAGCU` is recorded as 0.302.
For `CUCCGGAGCACUUCAUUGACCUCUUCAAGUUUGAUGGUGCACUCAGCCCCGUGCCCUUGUCUACAGCUGUCCCUUGUGCUUUCUGUGUCGUGUAGUUGGUGUGAGUAUUC`, “RBNS enrichment (R)” read 0.363.
`UACUGCUAGCCAAAGGGCUCGGGCCCCCCCCUGGACUGACCUGCCCAUGUAAUUUUCCCACUGCCACAGACCUCUCCAACCCAGGGCCCCUGGACAGCACAGAUCCAGUG`: “RBNS enrichment (R)” 0.685.
Under “RBNS enrichment (R)”, `GCACUUUUAAAAUAAGAAGCAUGAACAACAUUUAAAUUCCCAUUUAUCAAAUCCUUCUCUCCCAAGCCAUUUAAAAACGUUUUUUAAGUGAAAAGUUUGUAUUCUGCCUC` is recorded as 2.77.

Study 2 — technique: protein binding microarray; molecule type: double-stranded DNA, one strand shown; matrix: in vitro; concentration: not given; reference: not given; reading: higher = stronger binding
Target: Histone acetyltransferase KAT6A, both winged helices, GST fusion (KAT6A, Homo sapiens, UniProt Q92794, residues 1-181)
Notes: 8-mer, flanks averaged, mean of 2 arrays, mostly near background
Target sequence (chain): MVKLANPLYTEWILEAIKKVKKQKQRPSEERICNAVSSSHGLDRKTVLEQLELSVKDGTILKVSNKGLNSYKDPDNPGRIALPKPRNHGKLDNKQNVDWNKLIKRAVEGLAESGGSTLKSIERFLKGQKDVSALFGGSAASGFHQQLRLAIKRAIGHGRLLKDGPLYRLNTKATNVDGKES
With `CCCGTTCA` the E-score was 0.0705.
`AGGAGACT` gave an E-score of -0.185.
For `ATATCAAC`, the E-score was 0.0447.
`CCGTGTTC` has an E-score of 0.256.
`ATGTCGCG` has an E-score of 0.285.
`CTCCCTCA` gave an E-score of -0.208.
The E-score of `GGCCCAAA` is reported as -0.128.
The E-score of `AATGGAGC` is reported as -0.0928.
`AATATACC` has an E-score of -0.0703.
`AACTTGTC` has an E-score of 0.021.
With `CATGATCG` the E-score was 0.0175.
For `ATCCAGAG`, the E-score was -0.135.
With `CTGCACAG` the E-score was -0.0803.
`AGAGCGCT` has an E-score of 0.273.
With `ATGACGGC` the E-score was 0.251.
`AGATGCAT` has an E-score of -0.165.
`CACATTAG` has an E-score of -0.172.
The E-score of `GTCATGCA` is reported as -0.0874.
For `CTATGCAC`, the E-score was -0.139.
With `GCCTACCA` the E-score was -0.00381.
For `AATAGAGA`, the E-score was -0.119.
`AAGACCAT` has an E-score of -0.179.
`AGTTATCG` gave an E-score of 0.0233.

Study 3 — technique: protein-binding microarray; molecule type: double-stranded DNA, one strand shown; matrix: in vitro; concentration: 250 nM; notes: 60-bp whole probe; with: salmon DNA 0.4 mg/ml; reference: random background probes; reading: higher = stronger binding; constant ends, left off below: GCCTAGCAC … GTCTTGATTCGCTTGACGCTGCTG
Target: Interferon regulatory factor 7, full length, phosphomimetic (IRF7, Homo sapiens, UniProt Q92985, residues 1-503, S101K/S471D/S472D/S475D/S476D/S477D/S483D/S484D/S487D)
UniProt Q92985, sequence (whole entry, unmodified, looked up): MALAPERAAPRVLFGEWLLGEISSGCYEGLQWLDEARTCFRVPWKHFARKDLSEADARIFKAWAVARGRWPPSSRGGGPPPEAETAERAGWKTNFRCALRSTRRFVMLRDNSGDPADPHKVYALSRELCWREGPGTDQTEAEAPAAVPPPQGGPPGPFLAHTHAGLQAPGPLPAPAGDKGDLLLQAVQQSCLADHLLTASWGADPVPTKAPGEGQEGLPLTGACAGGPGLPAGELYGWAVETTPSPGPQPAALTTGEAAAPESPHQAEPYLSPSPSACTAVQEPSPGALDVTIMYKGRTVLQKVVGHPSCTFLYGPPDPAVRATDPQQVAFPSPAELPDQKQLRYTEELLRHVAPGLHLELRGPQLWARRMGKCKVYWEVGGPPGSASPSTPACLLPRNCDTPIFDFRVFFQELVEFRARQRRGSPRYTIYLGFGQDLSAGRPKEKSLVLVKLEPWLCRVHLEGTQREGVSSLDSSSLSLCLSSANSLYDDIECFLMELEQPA
`GACGGTCTAGGTCTCGGGACGTGCTAG` gave a log fluorescence of -0.147 z-score.
For `GACGGTATCCATTTCCTGACGTGCTAG`, the log fluorescence was 1.03 z-score.
For `TCACCTCTGCTCCTCTTACTGTGCTAG`, the log fluorescence was 0.125 z-score.
`GACGGTTACGACTATCGGGACGTGCTA` gave a log fluorescence of -0.293 z-score.
With `GACGATTCCAGTCTCGAGACGTGCTAG` the log fluorescence was 0.945 z-score.
`GACGGTCTCCTATTCCTGACGTGCTAG` gave a log fluorescence of 0.435 z-score.
`TAAGATATCAGTTTCGATTAGTGCTAG` gave a log fluorescence of 9.16 z-score.
`TCATGTCTTAGATTCCTACTGTGCTAG` gave a log fluorescence of 0.622 z-score.
The log fluorescence of `TCAATAATGGATATATAACTGTGCTAG` is reported as -0.111 z-score.
`TCTCTTTCCTTCTTGATGCAGTGCTAG` has a log fluorescence of 2.2 z-score.
The log fluorescence of `TTGGAACTGGGGTATCGATTAGTGCTA` is reported as 0.467 z-score.
`TCAGGAGTGTTTCTCAGACTGTGCTAG` has a log fluorescence of -0.642 z-score.
With `GACGGACTGGACTTTCGGGTCGTGCTA` the log fluorescence was 0.0102 z-score.
`TTAGGTATCGGTTACGGTTAGTGCTAG` has a log fluorescence of 1.93 z-score.
`GACGATTTCCGGTTTCGAGACGTGCTA` gave a log fluorescence of 6.31 z-score.
For `TTAGATTGCAGTTCCGATTAGTGCTAG`, the log fluorescence was 0.502 z-score.
The log fluorescence of `GACGATCTCAGTTTAGAGACGTGCTAG` is reported as 0.077 z-score.
With `GACGAACCGGGGTTTCGAGACGTGCTA` the log fluorescence was 2.55 z-score.
For `CTCTACATGGGTATAGAGTAGTGCTAG`, the log fluorescence was -0.254 z-score.

Study 4 — technique: RNA Bind-n-Seq; molecule type: RNA; matrix: in vitro; concentration: not given; reference: input RNA pool; reading: higher = stronger binding
Target: RING finger protein unkempt homolog, zinc fingers 1-6, GST-SBP tag (UNK, Homo sapiens, UniProt Q9C0B0, residues 30-357)
UniProt Q9C0B0, sequence (30-357, looked up): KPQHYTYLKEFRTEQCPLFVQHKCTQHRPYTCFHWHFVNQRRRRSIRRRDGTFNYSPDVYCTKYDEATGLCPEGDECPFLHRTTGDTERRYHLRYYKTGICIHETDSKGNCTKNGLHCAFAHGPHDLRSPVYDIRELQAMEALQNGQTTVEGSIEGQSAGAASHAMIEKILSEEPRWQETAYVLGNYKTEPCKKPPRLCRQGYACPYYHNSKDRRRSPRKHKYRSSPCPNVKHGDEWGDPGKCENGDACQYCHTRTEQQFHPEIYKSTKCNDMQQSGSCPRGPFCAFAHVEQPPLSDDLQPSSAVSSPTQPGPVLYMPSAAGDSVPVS
Notes: RNA with constant flanks, human and mouse sites, ends assumed
Constant ends, left off below: GGGAGUUCUACAGUCCGACGAUC … CAACAGAGGAUUGAGCAUCA
For `GCAGAAGGAUUUCUCCAGUGACGAUUCCAAGCUAGAGUAUAAUGUAGACGCUGCAAAUGGCAUUGUCAUGGAAGGGUAUCUGUUCAAACGAGCCAGCAACGCCUUCAAAACGUGGAACAG`, the bound/input enrichment was 0.216 ratio.
`GCUGGUGACUGGAAGUGUCCUAAUCCCACCUGUGAGAAUAUGAACUUCUCUUGGAGGAAUGAAUGCAACCAGUGUAAGGCCCCUAAACCAGAUGGCCCAGGAGGGGGACCAGGUGGCUCU` has a bound/input enrichment of 0.233 ratio.
`ACCCUCAUCAACAUCCCAGCCCUAAACGACAGCGACUCUGAAGUGGAGGAUAUCUCGGAAAUAGAGUCCAACCGGUCUUUCUCUCCAGAGGAGAGACGCCAGCAGUAUUCUGAUCAGGAU` has a bound/input enrichment of 0.179 ratio.
The bound/input enrichment of `CAUCAACUUCUUGCAUUGAAAGAACAGGAACACAGGAAGGAACUUGAAACAAGGGAGUUUUUUACUGAUGCUGACUUCCAGGAUGCCUUAGCUAAAGAAAUAGCCAAAGAAGAGAAAAAG` is reported as 0.363 ratio.
For `UCCUGGCCGCGCCCAGCCCCCUCUCGCCAUGCCGCCCGCGGGGCCCCGCGGGACCGCGCCGCUCGCAGCCGUCGUCCUGCUGGUGCUUGGGGCUCCUCUGGCGCUGGCGAGUGAGGACUG`, the bound/input enrichment was 0.44 ratio.
The bound/input enrichment of `GUGAAGAGAAACAAUUUCUAGCCUUCUUGCCAAAUCCAGACCUCUGGUUGACUUUUCUUUCAUAGAAGAUGGAGUUAUCUUCCAGUUUUCCAACUUAAAUUUAUUUAGCCUUUAUAUUAU` is reported as 293 ratio.
With `UGUUACUCUUAUUUAACAGGACCUCUGUUGUAUUGAUUUCUUCUGUAUCUUCCUUUUGAAUCUUGUAAGACAGAAGUUUAAGACCACGAGUUGGAAGACAAGUCACAUAAUCCAAACACA` the bound/input enrichment was 0.145 ratio.
`GGUCCAGAGGCAGACCAGCCUGAGGCUGCUAAAUUCCGCCAGUUCUGGGGAUCCCGCUCGGAGCUUCGGCGUUUCCAGGACGGAGCCAUUCGGGAAGCUGUGGUCUGGGAGGCAGCCUCU` has a bound/input enrichment of 0.163 ratio.

Excerpt of the above (study 3):
With `GACGGACTGGACTTTCGGGTCGTGCTA` the log fluorescence was 0.0102 z-score.
`TTAGGTATCGGTTACGGTTAGTGCTAG` has a log fluorescence of 1.93 z-score.
`GACGATTTCCGGTTTCGAGACGTGCTA` gave a log fluorescence of 6.31 z-score.
For `TTAGATTGCAGTTCCGATTAGTGCTAG`, the log fluorescence was 0.502 z-score.
